Measurements collected from several papers.
Lines come from different studies, so protocols differ. ± gives the spread as reported.

COc1ccc([C@@H](O)c2cc(-c3ncnc4cc(N5CCOCC5)ccc34)c(F)cc2Cl)nn1
drug-related blood lymphatic AE (locally advanced rectal cancer patients; 50 mg, together with: capecitabine and radiotherapy): 0%

COc1cc2c(c(OC)c1OC)C(=O)c1c(cc(C)c(O)c1OC)C2=O
viability (HK-2 co-cultured with HepaRG; MTT; 266.67 µM, 48 h; relative to: untreated control): 11.5 ± 3.1%

CCCC1CCC(C2CCC(c3cc(F)c(F)c(F)c3)CC2)CC1 (stereo not shown)
fetal accumulation (rat, fetus; 5000 ng/mL in perfusate, high dose, mixture of 21 LCMs): 3.98 ± 1.78 ng/g

CNCc1ccc(-c2[nH]c3cc(F)cc4c3c2CCNC4=O)cc1
neutropenia incidence (human patients; oral, 240 mg twice daily, all grades): 0%

COc1cc2c3c(n(CCCN4CCOCC4)c(=O)c2cc1OC)-c1cc2c(cc1C3=O)OCO2
Vz (beagle dog, male, plasma; intravenous infusion, 100 mg/m^2, 1 h infusion, vehicle 1): 799 ± 115 L/m²

O=C(O)CCC(=O)O.[2H]C([2H])([2H])Oc1cc(C)c2[nH]ccc2c1CN1CC[C@@H](C2CC2)C[C@H]1c1ccc(C(=O)O)cc1
TEAE urinary sediment detected (healthy Chinese subjects; 200 mg, single ascending dose): 0%

CC[C@H](C)[C@H](NC(=O)[C@H](CCCNC(=N)N)NC(=O)[C@H](CCC(=O)O)NC(C)=O)C(=O)N[C@H]1CSSC[C@@H](C(=O)N[C@H](C(N)=O)[C@@H](C)O)NC(=O)[C@H](CCCNC(=N)N)NC(=O)[C@H](Cc2c[nH]cn2)NC(=O)[C@H](C)NC(=O)CNC(=O)[C@H](Cc2c[nH]c3ccccc23)NC(=O)[C@H](CC(=O)O)NC(=O)[C@H](CCC(N)=O)NC(=O)[C@H](Cc2c[nH]c3ccccc23)NC(=O)[C@H](C(C)C)NC1=O
retention factor (RP-HPLC, C18; 28% acetonitrile isocratic; pH 7.4): 0.62 ± 0.015

Cc1ccc([C@@H]2O[C@H](CO)[C@@H](O)[C@H](O)[C@H]2O)cc1Cc1ccc(-c2ccc(F)cc2)s1
trough concentration (human, maintenance hemodialysis patients; oral, 300 mg once daily, steady state, mean): 340 µg/L

OC[C@H]1O[C@@H](c2ccc(Cl)c(Cc3ccc(O[C@H]4CCOC4)cc3)c2)[C@H](O)[C@@H](O)[C@@H]1O
change in Potassium (Japanese type 1 diabetes patients, blood; 25 mg, day 28; relative to: baseline): -0.1 mEq/L

C[Si]1(C)O[Si](C)(C)O[Si](C)(C)O[Si](C)(C)O[Si](C)(C)O1
log KOA (1-octanol/air; 25 °C): 4.95

C=CC(=O)Nc1cc(Nc2nccc(-c3cn(C)c4ccccc34)n2)c(OC)cc1N(C)CCN(C)C
recovery (storage stability; human plasma; 24 h, -80 °C, LLOQ level): 93.6%

CC[C@@H]1CN(C(=O)NCC(F)(F)F)C[C@@H]1c1cnc2cnc3[nH]ccc3n12
Vc/F (population PK model; healthy, RA and CD subjects, plasma; oral, immediate-release formulation): 141 L

CCc1cc(C(=O)NC)c2nccc(N3CCc4c(cc(Cn5ccnc5)cc4-c4cn(C)nc4C(F)(F)F)C3=O)c2c1
serum albumin (Sprague Dawley rats; oral, 100 mg/kg once daily, 7 days): 33 ± 1.45 g/L

O=c1nc(N2CCN(CC3CCCCC3)CC2)sc2c([N+](=O)[O-])cc(C(F)(F)F)cc12
fraction unbound (equilibrium dialysis; CD-1 mouse plasma; 1 µM, 18 h, pH 7.4): 0.002

O=C(Nc1nc2cccc(-c3ccc(CN4CCS(=O)(=O)CC4)cc3)n2n1)C1CC1
patients with musculoskeletal disorders (rheumatoid arthritis patients; oral, 100 mg twice daily, 4 weeks, regardless of relatedness): 8.3%

O=C1NCCc2nc(OCc3cccc(F)c3)ccc21
Irwin test score (measured: Writhing; Sprague-Dawley rat, male; oral, 100 mg/kg, 1 h, score 0 none to 2 full; direction not given): 0

CCCCCNC(=O)N1CCC(CN(Cc2ccc(Cl)cc2)Cc2ccc([N+](=O)[O-])s2)C1 (stereo not shown)
mean corpuscular volume (complete blood count; C57BL/6 mice, blood; 100 mg/kg twice daily, 7 days): 41.5 ± 0.4 fL

CC[C@H](C)[C@H](NC(=O)CN)C(=O)N[C@@H](CCCNC(=N)N)C(=O)N[C@@H](CCCNC(=N)N)C(=O)N[C@@H](Cc1ccccc1)C(=O)N[C@@H](CC(C)C)C(=O)N[C@@H](CCCNC(=N)N)C(=O)N[C@]1(C)CCCCCCC=CCCC[C@@](C)(C(=O)N[C@@H](Cc2ccccc2)C(=O)N[C@@H](CCCNC(=N)N)C(N)=O)NC(=O)[C@H](CCCNC(=N)N)NC(=O)[C@H](C(C)C)NC(=O)[C@H](Cc2ccccc2)NC(=O)[C@H](CCCNC(=N)N)NC(=O)[C@H](CCCNC(=N)N)NC(=O)[C@H](C)NC1=O
retention time (UPLC; TFA water/acetonitrile gradient; longer = more hydrophobic): 2.75 min

Cc1cc(O)c2c(c1)C(=O)c1cc(O)cc(O)c1C2=O
viability (HK-2 co-cultured with HepaRG; MTT; 266.67 µM, 48 h; relative to: untreated control): 44 ± 3.33%

Repeated from above:
C=CC(=O)Nc1cc(Nc2nccc(-c3cn(C)c4ccccc34)n2)c(OC)cc1N(C)CCN(C)C
recovery (storage stability; human plasma; 24 h, -80 °C, LLOQ level): 93.6%
